Measured values of several laboratories.
Each numbered part is a random draw from the data of one study; scales do not carry over between parts. Positions count from the first letter of the parent shown.

Set 1
Target: Histone acetyltransferase KAT6A, both winged helices, GST fusion (KAT6A, Homo sapiens, UniProt Q92794, residues 1-181)
Technique: protein binding microarray
Molecule type: double-stranded DNA, one strand shown
Sample: in vitro
Concentration: not given
Notes: 8-mer, flanks averaged, mean of 2 arrays, mostly near background
Baseline: not given
Direction: higher = stronger binding
Residues (chain): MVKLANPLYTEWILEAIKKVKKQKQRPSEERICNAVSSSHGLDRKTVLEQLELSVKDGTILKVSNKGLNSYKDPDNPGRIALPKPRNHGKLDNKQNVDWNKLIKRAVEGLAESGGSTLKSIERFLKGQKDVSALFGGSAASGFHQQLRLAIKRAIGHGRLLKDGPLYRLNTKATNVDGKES
Oligonucleotide	E-score
GCCTCCCC	0.0604
AGCTAGAC	0.0748
CTTTGGTC	-0.166
AGGACTAT	-0.122
AGGGCAAC	-0.09
AACCTCTA	-0.0044
AAAGCCTG	-0.0694
ATTCCGCC	0.115
AAGCCTCG	-0.0466
AGTATGCG	0.178
TCAGAGCA	-0.184
GCTCGAGC	0.166
CCGGTTTC	0.218
GGGCGCCA	0.215
AATGCTCT	-0.103
ACGAAACT	-0.179
GCTACTAA	0.0168
GTAGTGTA	-0.132

Set 2
Target: CCNA1, cyclin fold, Cln2 fusion (human)
Technique: yeast growth competition, sequencing
Sample: yeast
Notes: weak parent motif
Baseline: not given
Direction: higher = stronger binding
Starting sequence: CUX1 docking peptide (human); SRIRRELFIEEIQ
Change	normalised enrichment score
SRIRRELFIEAIQ [E11A]	0.821
SRIRRELFIEEAQ [I12A]	0.213
SRIRRELAIEEIQ [F8A]	0.346
SRIARELFIEEIQ [R4A]	0.416
SRIRRELFIEEIA [Q13A]	0.609
ARIRRELFIEEIQ [S1A]	0.355
SRIRRELLIEEIQ [F8L]	0.395

Set 3
Target: Interferon regulatory factor 5, full length, phosphomimetic (IRF5, Homo sapiens, UniProt Q13568-2, residues 1-514, K96S/S451D/S453D/S456D/S462D)
Technique: protein-binding microarray
Molecule type: double-stranded DNA, one strand shown
Sample: in vitro
Concentration: 250 nM
Notes: 60-bp whole probe
With: salmon DNA 0.4 mg/ml
Baseline: random background probes
Direction: higher = stronger binding
Constant ends, left off below: GCCTAGCAC … GTCTTGATTCGCTTGACGCTGCTG
Oligonucleotide	log fluorescence
AATTAAATGATATATATCCATGTGCTA	1.01 z-score
TTAGATCTCAGTATTGATTAGTGCTAG	0.615 z-score
GACGAAATCGGGACTGGAGACGTGCTA	0.32 z-score
TTAGGTTTCGGTATCGCTTAGTGCTAG	10.9 z-score
CTCCTTCTCTAACCTCTCTAAGTGCTA	0.335 z-score
GAGTCTTCCCTTTTAAGTTCGTGCTAG	0.0312 z-score
TCATATACACACTATAGTACTGTGCTA	0.327 z-score
GACGGACTGGGGAATGGGGACGTGCTA	-0.45 z-score
GACGGGATCGGTATCGGGACGTGCTAG	0.758 z-score
TCATTTTTTGGTTTCTGACTGTGCTAG	2.25 z-score
CTAGGTTTCGGGACTGGGTTAGTGCTA	5.41 z-score
TTAGGTACCCTTATCCTTTAGTGCTAG	-0.343 z-score
TTTTTTTTTTACTTCGGGTGGTGCTAG	1.45 z-score
AGCTACTGAGTGGCAACACAGTGCTAG	-0.398 z-score
TTAGGTTTCATTATCCTTTAGTGCTAG	3.38 z-score
GCCGGTATCGGTTTCGGGACGTGCTAG	9.18 z-score
TCAAATCTTGAGTTAGAACTGTGCTAG	-0.245 z-score
CTAAAAATCCCATTAAATTTGTGCTAG	0.299 z-score
GACGACTTCAGTCTCGAGACGTGCTAG	-0.0914 z-score

Set 4
Molecule: PhoQ, residues 284 288 289 292 302 303 SIHMAM
Technique: Sort-seq
Item: YFP reporter
Sample: E. coli
Notes: PhoQ-PhoP variant library
With: 10 µM Mg2+
Baseline: high Mg2+ state
Direction: higher = stronger signaling
target	fold induction
PhoP, residues 12 14 15 18 19 TQALL (Escherichia coli, UniProt P23836)	8.51
PhoP, residues 12 14 15 18 19 QYFSL (Escherichia coli, UniProt P23836)	3.87
PhoP, residues 12 14 15 18 19 NYFRM (Escherichia coli, UniProt P23836)	5.14

Excerpt of the above (set 2):
Change	normalised enrichment score
SRIRRELLIEEIQ [F8L]	0.395
SRIARELFIEEIQ [R4A]	0.416
SRIRRELFIEAIQ [E11A]	0.821
SRIRRELFIEEAQ [I12A]	0.213
SRIRRELAIEEIQ [F8A]	0.346
